Measured values gathered from unrelated publications.
A part holds a random share of what one study measured.

Block 1 — method: protein binding microarray; form: double-stranded DNA, one strand shown; matrix: in vitro; tested at: not given; relative to: not given; reading: higher = stronger binding
Target: Histone acetyltransferase KAT6A, winged helix 1, GST fusion (KAT6A, Homo sapiens, UniProt Q92794, residues 1-85)
Setting: 8-mer, flanks averaged, mean of 2 arrays, mostly near background
Construct (chain): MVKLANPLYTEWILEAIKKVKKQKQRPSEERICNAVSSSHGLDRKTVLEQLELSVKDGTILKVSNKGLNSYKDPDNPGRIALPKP
Sequence	E-score
ACGCTACG	0.132
AAGTGTGC	-0.0785
AGGTAGCG	0.128
ACCCGTTC	0.16
CGCCAATA	0.0137
CGAGAGTA	-0.0364
AACGCAGA	-0.139
ACCATGTG	-0.15
CTCAAAAC	-0.164
CAAGTGGG	-0.237
ATTCTTAC	-0.037
AGTGATCA	-0.117
ACCAGCGT	-0.111
AGATCTGG	-0.158
AAGGCCAC	-0.0496
AAACCCTA	-0.26

Block 2 — method: universal PBM; form: double-stranded DNA, one strand shown; matrix: in vitro; tested at: not given; reading: higher = stronger binding
Target: Sal-like protein 4, full length isoform B (SALL4, Homo sapiens, UniProt Q9UJQ4-2, residues 1-616)
Setting: 8-mer, flanks averaged, mean of replicates
Sequence	E-score
CCTGAAGC	-0.228
AAATTTGA	0.296
AACAGTTG	-0.0595
CGCCGGTC	-0.374
GTGCACAC	0.0119
CTCGAAAA	0.0159
CTTGATTA	0.139
CAGAATAA	0.208
ACCCGGAG	-0.239
AGAAGTTA	0.15
ATTCATGC	0.0298
CCTGCAGC	-0.0703
ACAGAGCA	0.0262
TATGCTGA	0.15
CCGTTTTC	-0.187
CTCCCCCC	-0.212
AACTGTGC	-0.0485
ATGTATCC	0.185
GACCCGCC	-0.272
CCCCCGAC	-0.0697
AAAGCTAC	-0.102
ACTTCAAT	0.261
ACTATCTG	-0.101

Block 3 — method: RNA Bind-n-Seq; form: RNA; matrix: in vitro; tested at: 365 nM; relative to: no-protein control; reading: higher = stronger binding
Target: RNA binding protein fox-1 homolog 2, RRM domain, GST-SBP tag (RBFOX2, Homo sapiens, UniProt O43251-10, residues 100-194)
Setting: natural RNA segment, single round, ends assumed
Target sequence (chain): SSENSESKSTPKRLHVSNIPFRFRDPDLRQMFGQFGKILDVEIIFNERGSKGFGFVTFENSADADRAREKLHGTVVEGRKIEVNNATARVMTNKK
Sequence	RBNS enrichment (R)
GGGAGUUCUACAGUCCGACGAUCUCUUCAAAAAUGGUCACAGAAUGCCUUUUAAAACAUUGUAUAUAAUCUUCACUGUUUCACCAUCUAGCUUGCUAAGUCAAAUAUUUAUGAUGAUAAUGAGGUACUGAACCUGGAAUUCUCGGGUGCCAA	0.434
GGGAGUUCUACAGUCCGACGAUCUCCUCAGAAGGUUCAUCACGGAAUUUCCUGACAUGCACUGUAGAUGCUACAAACAUGUCUACCCAGGGUACCACUGAGCUACGUCUUCCUCAUGGGGCAGACGUGAUUGGUGGAAUUCUCGGGUGCCAA	0.17
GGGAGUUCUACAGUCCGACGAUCCAUCUCUCUUCUGUACCACUAGAGGGAGCUCUGAUGCAGCUGGAGAGCAGCGCUCAAGGCUCUCGCCCCUCCCCUCCCUAACCCUUACCUUCAGUCUCCACCAGCCUGAAUGGAAUUCUCGGGUGCCAA	0.307
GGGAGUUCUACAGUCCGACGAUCAAGAUGAAUGGCGUCUGUGGGUUGCUAACUGAACUUUGAAGACCCGCUGCAAAACGCGCAGAUGUGCAGCAGAUUGGAAGGAGACACAGAUGGUCCUUUUUUUCCUGUUUUGGAAUUCUCGGGUGCCAA	0.396
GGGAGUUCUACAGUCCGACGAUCGUGCCUUUUGCCUUCCACCAUGAUUGUGAGGCCUCCCAGCCACAUGGAACUGUGAGUUCAUUAAACCUCUUUUUCUUCAUAAAUUACCCAGUCUCGGGUAUGUCUUUAUCUGGAAUUCUCGGGUGCCAA	0.42
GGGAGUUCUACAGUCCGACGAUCGAGGCAUUCAUUGUGAGGUCUACUGGAUGAGGCCCAUAGUUGAGACUUGUAGACAUUUAUUUAUACUGUGUCAUGUUUUAUAAUUUAUACAUAAAAUGUCUGGUUGACUGUGGAAUUCUCGGGUGCCAA	1.33
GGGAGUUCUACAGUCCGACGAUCAGCACCCCCAGUGCUCGCUCAUGGGAAAUAUCAGCCCUAGGCUGGUUGUUUUUACAAAUCUCUCUCAGAUAUAUUAUUUUCAUGACAAAAAUGAAGGAGCUUUGUAAAUUUGGAAUUCUCGGGUGCCAA	0.409
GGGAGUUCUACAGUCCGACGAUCGCUCUAGGGCUGUGCACUUUCCACUUUCCGGAGGAAUAGAGUUUUUCUUUUUUUCAACUCUCCAUCAAAUGUGCCUUAAAGUUAAGCAUUUUGACCCAAGUGUUUUAACUUGGAAUUCUCGGGUGCCAA	0.39
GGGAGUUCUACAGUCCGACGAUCCAGCUAACCAACUGCAUUACCCAAACCAUAUUGCACUUUUAGUUCCCUAGUUUUCUAGGUGAGCUUCAUUCCCUGAAAGGAGGAUGAUGAUAUCUAGGCAUAACCUAGCCUGGAAUUCUCGGGUGCCAA	0.467
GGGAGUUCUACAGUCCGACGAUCACUCUCCAGUGUUGUCCAAGGAAAUGUAGAAUCAGUUUGUAGAUAGAUAAAAUAAUCUUUAUUAUAAUGACCAGUUUUGUGCCACAUUGUUGGUGGCGAUCGACCAGAUGUGGAAUUCUCGGGUGCCAA	0.878
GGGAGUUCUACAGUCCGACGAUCGCGAAGCUUGGGAUCUGGCCAAGUUGGACUUUGAUCCUUUGGGCAGAUGUCCCAUUGCUCCCUGGAGCCUGUCAUGCCUGUUGGGGAUCAGGCAGCCUCCUGAUGCCAGAUGGAAUUCUCGGGUGCCAA	0.271
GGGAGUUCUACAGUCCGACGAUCUAAUUUCAGCUGACUUUCCUCUGACUGCUUUGUCUACUCAGUUAGAAAUAUUCAGAUACAAGUUUUAUCUCAGGUGAAUAUCCUUGUAUCGUUUUGCUUUGCUGACAUGUUGGAAUUCUCGGGUGCCAA	0.594

Block 4 — method: competition protein-binding microarray; form: double-stranded DNA, one strand shown; matrix: in vitro; tested at: 2 µM; with: Cbf1 competitor, 0.05 µM; reading: higher = stronger binding
Target: Phosphate system positive regulatory protein PHO4, full length, GST-tagged (PHO4, Saccharomyces cerevisiae, UniProt P07270, residues 1-312)
Setting: whole 60-bp probe, lowest competitor level
Target sequence (chain): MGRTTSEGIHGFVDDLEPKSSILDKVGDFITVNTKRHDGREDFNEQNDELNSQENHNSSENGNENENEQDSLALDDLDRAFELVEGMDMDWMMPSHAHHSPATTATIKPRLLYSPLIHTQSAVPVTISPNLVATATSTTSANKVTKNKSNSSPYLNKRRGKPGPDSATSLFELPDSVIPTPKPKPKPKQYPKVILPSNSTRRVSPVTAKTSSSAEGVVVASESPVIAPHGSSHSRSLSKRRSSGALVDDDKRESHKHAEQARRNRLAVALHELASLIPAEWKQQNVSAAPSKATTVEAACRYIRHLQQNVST
Sequence	fluorescence intensity
ACCAGCGTTGGACGCGTCGTGCGGATTCGTTCTTGTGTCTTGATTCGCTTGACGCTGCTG	7570 a.u.
CTTGTTATTTACGGCCACGGGGACACTATTATGGTTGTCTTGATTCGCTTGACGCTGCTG	11600 a.u.
ACCCAACAATTAAAATCCGTGATGGTTTAATGGTCAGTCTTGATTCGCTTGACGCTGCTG	4460 a.u.
GGGATATTCCACCATCACGTCTGCGCCAAGCCACAAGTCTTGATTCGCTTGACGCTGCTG	4330 a.u.
TTCAGCAAACGGCAGCATGTGAAAAAACCCGTAGAAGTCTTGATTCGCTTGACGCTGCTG	5960 a.u.
AGGGTAACATACCATCACGTGCAAACCAGGATAATTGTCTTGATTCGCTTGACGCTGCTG	20100 a.u.
AGTAAGAACAATACCCACGTGCTTTTCAATGTACAAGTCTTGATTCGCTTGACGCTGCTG	18000 a.u.
CGGCAAGACATGTCCCACGTTATAAGGCAATTTCCAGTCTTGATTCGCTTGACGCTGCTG	9290 a.u.
AAATTACTAAGTTGACTCGTGGGTGACGCCGTATGAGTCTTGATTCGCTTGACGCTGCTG	10400 a.u.
TAACGCGATTTACGCTCCGTGCAAAACGATTCTTTGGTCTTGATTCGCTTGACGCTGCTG	4210 a.u.
AAAGCGGTAATTTTTCACGTGACGTCAAATATCTATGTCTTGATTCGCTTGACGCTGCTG	10600 a.u.
CAACAAGGAGGATGGCATGTGGATACTACTTTCTTGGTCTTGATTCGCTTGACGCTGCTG	8980 a.u.

Block 5 — method: RNA Bind-n-Seq; form: RNA; matrix: in vitro; tested at: not given; relative to: input RNA pool; reading: higher = stronger binding
Target: RING finger protein unkempt homolog, zinc fingers 1-6, GST-SBP tag (UNK, Homo sapiens, UniProt Q9C0B0, residues 30-357)
Setting: RNA with constant flanks, human and mouse sites, ends assumed
Residues (chain): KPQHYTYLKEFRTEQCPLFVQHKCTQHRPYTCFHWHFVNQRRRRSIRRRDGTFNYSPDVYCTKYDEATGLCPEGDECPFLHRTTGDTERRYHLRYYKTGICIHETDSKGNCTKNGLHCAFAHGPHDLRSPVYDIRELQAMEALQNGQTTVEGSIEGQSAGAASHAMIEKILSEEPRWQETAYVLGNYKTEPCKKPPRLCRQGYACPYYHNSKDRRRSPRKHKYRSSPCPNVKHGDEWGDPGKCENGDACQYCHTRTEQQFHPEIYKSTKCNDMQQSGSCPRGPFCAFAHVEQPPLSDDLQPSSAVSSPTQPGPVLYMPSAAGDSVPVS
Sequence	bound/input enrichment [ratio]
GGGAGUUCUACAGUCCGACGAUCGUCAACUAUGAAGAAUUCGUACAGAUGAUGACUGCAAAAUGAAGACCUACUUUCAACUCCUUUUUCCCCCCUCUAGAAGAAUCAAAUUGAAUCUUUUACUUACCUCUUGCAAAAAAAAGACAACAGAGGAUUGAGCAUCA	1.67
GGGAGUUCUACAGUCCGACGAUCGCGCGCCGGGGCGGGGGCAGCCCUCUCCCAGGCGGCGGUGGGGGCGGCGUCGCUGUUGCCCUUUUAAGCCGCGGGGCCACCGCCUCCUGCGGGUGGAGUCGGUUACAAAGGCAGCAGCCGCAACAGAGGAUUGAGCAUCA	0.258
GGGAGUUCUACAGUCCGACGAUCAAGAAGUGCAAACAGGACAAUAGGAAGGAGGAGCAGGCAGCUUCCCCUGUUGCAGAAGAUGUAGGUGAUGUGGGUGUGAGCUCAGAUGAUGAGAAGAGAGCCCAGGCAGCAAGAGGAUCUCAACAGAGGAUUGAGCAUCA	0.51
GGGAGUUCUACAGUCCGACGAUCGCCCCUUCUCUCCCCUGUAACCUGUUUAUUAACCAUACCUGUCCUGAGUUCAUGGCCAAAACCUUAAAUAAGAAAAACAAAAGAAAAAGACAGUGGAAAAAAGAGACCAAGGCGCCUGCCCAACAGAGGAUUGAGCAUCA	0.361
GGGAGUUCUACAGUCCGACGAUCGUCCUGAAGCUUUGUGUUUGGCUGCACCUGCAUAAGCUGCUACAAAUAGAAUAAAGAAUUCAUAGCCUGUAUCUAUCAUUUAGAUGCAUGGAAAAAUGGGCUUUGCACACAAUGGGUUUGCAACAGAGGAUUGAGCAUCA	2.22
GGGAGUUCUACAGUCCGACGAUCACUGCAGGUCUAACAAUGCAUGCAUCAAUUCUUGCAUAUAUGUUUAAUUUGGUUGAAGAAGGAAAAAUAAGUACACCACUAAAUCCUGGAAAUCCAGUUAACAACCAAAUGUUUAUUCAACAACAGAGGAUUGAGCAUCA	0.131
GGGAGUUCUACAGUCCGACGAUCCGGGAAGCUGUAUGCAUUGUUCUUUCUGAUGACACGUGUUCUGAUGAGAAGAUUCGAAUGAAUAGAGUUGUUCGGAAUAACCUCCGAGUUCGCCUAGGAGAUGUCAUCAGCAUCCAGCCACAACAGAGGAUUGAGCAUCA	0.156
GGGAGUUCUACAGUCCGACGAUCCUGACACCUCAGGGCACACUUGCCGAGAGGAUCCGUGCCGGUGGAGCUGGAGUCCCUGCCUUCUACACCAGCACAGGGUAUGGGACUCUGGUACAGGAAGGAGGAUCACCCAUCAAAUAUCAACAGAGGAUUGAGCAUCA	0.0831
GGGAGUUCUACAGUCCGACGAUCACGAGCAGGCCCGGACCUCGAGACCUAAAGCUGGGGAUCCCAAGUCCGUUCUACAGCUAGAGAUCACUAUGUGGCCAUGGAAUCCUCGGGCGAUCCCUGUGGACGCCACCUCACUCCGGGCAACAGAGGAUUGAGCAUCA	0.0946
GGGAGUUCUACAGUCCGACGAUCCGGUAGUCAGCAAAUUAGAGAGCACAAAUGGCACUAUUGAUCCAGCAGUGACUAGAGAAUGUGAGAGUGACAGCUCUGCUGAUGAGUUAUGUGUAAAGUCUGAACCUUCUGAUACAGCGGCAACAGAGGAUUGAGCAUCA	0.455
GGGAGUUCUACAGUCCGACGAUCUAUACUUUGCUGAUCAACAUUCUUCAUAGUGAAGAUCUUGGAAAGGAUGUUGAAUUUGAAGUAGUUGGUGACAGCCCUGAAAAAGUGGGGCCAAAACAAGCUGAAGAUGCUGCCAAAAGCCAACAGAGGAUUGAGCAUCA	0.155

Repeated from above (block 2):
Sequence	E-score
CTCGAAAA	0.0159
CTTGATTA	0.139
CAGAATAA	0.208
ACCCGGAG	-0.239
AGAAGTTA	0.15
ATTCATGC	0.0298
CCTGCAGC	-0.0703
ACAGAGCA	0.0262
TATGCTGA	0.15
CCGTTTTC	-0.187
CTCCCCCC	-0.212
